Measurements from different studies.
Each numbered part is a random draw from the data of one study; scales do not carry over between parts. Substitutions count along the parent as printed.

Set 1 — technique: RNA Bind-n-Seq; form: RNA; medium: in vitro; concentration: 15 pmol; setting: 4-mer, random 30-nt RNA, single round; together with: 3 µM DMDA-PatA, 2 mM AMP-PNP; relative to: input library; reading: higher = stronger binding
Target: Eukaryotic initiation factor 4A-I (EIF4A1, Homo sapiens, UniProt P60842, residues 1-406, full length assumed)
Chain of UniProt P60842 (whole entry, looked up): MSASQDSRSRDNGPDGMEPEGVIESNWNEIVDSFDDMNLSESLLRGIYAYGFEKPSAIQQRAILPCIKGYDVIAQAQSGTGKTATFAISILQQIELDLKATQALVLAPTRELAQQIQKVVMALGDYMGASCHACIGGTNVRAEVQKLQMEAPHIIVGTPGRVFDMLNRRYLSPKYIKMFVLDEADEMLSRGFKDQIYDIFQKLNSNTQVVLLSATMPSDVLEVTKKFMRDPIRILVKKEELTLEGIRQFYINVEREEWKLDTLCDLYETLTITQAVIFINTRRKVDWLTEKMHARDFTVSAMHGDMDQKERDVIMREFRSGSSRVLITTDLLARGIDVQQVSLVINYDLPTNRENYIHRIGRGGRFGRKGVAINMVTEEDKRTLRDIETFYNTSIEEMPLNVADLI
With `CGUG` the 4-mer enrichment was 1.1 fold.
`UGUA` gave a 4-mer enrichment of 1.83 fold.
`UGCA` has a 4-mer enrichment of 0.944 fold.
`CACG` gave a 4-mer enrichment of 0.633 fold.
For `CGAU`, the 4-mer enrichment was 1.03 fold.
`AAAC` gave a 4-mer enrichment of 0.475 fold.
`GUAC` gave a 4-mer enrichment of 1.3 fold.
`GUAU` has a 4-mer enrichment of 1.5 fold.

Set 2 — target: NFE2L2, bZIP domain (human); technique: DHFR protein complementation; medium: yeast; relative to: wild-type JUN-FOS pair; reading: higher = stronger binding
Setting: single substitutions, most at no-binding floor
Starting sequence: JUN, bZIP domain (human); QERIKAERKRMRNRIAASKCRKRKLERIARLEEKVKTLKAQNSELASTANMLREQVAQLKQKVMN; partner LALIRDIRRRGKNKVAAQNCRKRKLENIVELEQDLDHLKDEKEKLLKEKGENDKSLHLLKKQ
For `A29F`, the binding fitness was -1.46 natural log.
With `K36M` the binding fitness was -1.45 natural log.
The binding fitness of `Q41M` is reported as -1.57 natural log.
`S47F` has a binding fitness of -1.27 natural log.
With `N42M` the binding fitness was -1.5 natural log.
`R53W` gave a binding fitness of -1.51 natural log.
`A29S` gave a binding fitness of -1.44 natural log.
`M51D` gave a binding fitness of -1.38 natural log.

Mixed results
P1: viral docking peptide; KGVKRKLFAEDSS; partner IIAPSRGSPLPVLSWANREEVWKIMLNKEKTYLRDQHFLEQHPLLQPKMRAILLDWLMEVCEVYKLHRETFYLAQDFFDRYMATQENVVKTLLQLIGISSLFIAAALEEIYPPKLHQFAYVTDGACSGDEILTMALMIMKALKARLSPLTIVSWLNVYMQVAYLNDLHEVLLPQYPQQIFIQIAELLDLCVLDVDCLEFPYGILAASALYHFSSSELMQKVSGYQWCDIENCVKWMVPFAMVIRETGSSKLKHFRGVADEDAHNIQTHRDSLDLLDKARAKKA
For `EP400 (Homo sapiens, UniProt Q96L91)`, cross-linked residues read “K1432 to K236” (RUVBL2 (Homo sapiens, UniProt Q9Y230); cross-linking MS; cell fractions; together with: DSSO).
For `P1 K4R`, “normalised enrichment score” read 7.74 (CCNE1, cyclin fold, Cln2 fusion (human); yeast growth competition, sequencing; yeast; strong parent motif; relative to: not given, higher = stronger binding).
Under cross-linked residues, `PDIA3 (Homo sapiens, UniProt P30101)` is recorded as “K289 to T528” (CARS2 (Homo sapiens, UniProt Q9HA77); cross-linking MS; cell fractions; together with: DSSO).
`MT-CO2 (Homo sapiens, UniProt P00403)`: cross-linked residues “E220 to K75” (COX6C (Homo sapiens, UniProt P09669); cross-linking MS; cell fractions; together with: DMTMM).
`RBM34 (Homo sapiens, UniProt P42696)` — result for cross-linked residues: “K369 to E456” (RBM28 (Homo sapiens, UniProt Q9NW13); cross-linking MS; cell fractions; together with: DMTMM).

A few entries again (set 2):
`A29S` gave a binding fitness of -1.44 natural log.
`M51D` gave a binding fitness of -1.38 natural log.
